Published values collected from several papers.
Numbered parts are unrelated; each lists some results of a single study.
UniProt P33981, sequence (whole entry, looked up): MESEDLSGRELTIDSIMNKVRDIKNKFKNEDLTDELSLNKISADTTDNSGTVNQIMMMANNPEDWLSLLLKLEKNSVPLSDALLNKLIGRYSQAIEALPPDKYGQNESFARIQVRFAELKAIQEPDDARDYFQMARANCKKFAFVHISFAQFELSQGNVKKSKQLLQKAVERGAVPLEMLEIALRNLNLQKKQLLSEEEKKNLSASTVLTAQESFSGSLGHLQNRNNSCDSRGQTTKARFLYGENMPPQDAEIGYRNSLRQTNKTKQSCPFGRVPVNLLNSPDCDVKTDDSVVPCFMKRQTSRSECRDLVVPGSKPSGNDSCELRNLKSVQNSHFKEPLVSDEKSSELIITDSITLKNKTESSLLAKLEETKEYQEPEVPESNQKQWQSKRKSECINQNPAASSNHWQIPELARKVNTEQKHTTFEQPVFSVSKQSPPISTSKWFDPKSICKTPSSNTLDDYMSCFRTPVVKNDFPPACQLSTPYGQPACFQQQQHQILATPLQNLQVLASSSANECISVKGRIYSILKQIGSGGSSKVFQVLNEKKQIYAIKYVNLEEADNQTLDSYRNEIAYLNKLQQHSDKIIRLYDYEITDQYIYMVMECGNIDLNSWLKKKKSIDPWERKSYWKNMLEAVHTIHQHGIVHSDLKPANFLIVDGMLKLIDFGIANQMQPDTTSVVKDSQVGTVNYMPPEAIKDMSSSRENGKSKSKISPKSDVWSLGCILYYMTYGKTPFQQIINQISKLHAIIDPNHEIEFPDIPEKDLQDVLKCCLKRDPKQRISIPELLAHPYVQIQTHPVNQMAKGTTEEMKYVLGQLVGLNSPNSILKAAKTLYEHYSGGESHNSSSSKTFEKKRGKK
UniProt O14965, sequence (whole entry, looked up): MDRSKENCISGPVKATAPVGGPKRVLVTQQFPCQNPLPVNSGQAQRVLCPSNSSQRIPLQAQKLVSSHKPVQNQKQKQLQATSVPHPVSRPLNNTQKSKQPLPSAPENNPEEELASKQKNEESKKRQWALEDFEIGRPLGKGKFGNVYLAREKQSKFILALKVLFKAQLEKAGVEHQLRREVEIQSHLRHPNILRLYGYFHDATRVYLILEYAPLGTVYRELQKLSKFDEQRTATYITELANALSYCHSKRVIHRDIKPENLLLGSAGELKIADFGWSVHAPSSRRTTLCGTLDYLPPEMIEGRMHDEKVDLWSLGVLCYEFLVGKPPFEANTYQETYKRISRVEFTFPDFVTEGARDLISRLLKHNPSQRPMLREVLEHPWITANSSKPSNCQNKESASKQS
UniProt Q04912, sequence (whole entry, looked up): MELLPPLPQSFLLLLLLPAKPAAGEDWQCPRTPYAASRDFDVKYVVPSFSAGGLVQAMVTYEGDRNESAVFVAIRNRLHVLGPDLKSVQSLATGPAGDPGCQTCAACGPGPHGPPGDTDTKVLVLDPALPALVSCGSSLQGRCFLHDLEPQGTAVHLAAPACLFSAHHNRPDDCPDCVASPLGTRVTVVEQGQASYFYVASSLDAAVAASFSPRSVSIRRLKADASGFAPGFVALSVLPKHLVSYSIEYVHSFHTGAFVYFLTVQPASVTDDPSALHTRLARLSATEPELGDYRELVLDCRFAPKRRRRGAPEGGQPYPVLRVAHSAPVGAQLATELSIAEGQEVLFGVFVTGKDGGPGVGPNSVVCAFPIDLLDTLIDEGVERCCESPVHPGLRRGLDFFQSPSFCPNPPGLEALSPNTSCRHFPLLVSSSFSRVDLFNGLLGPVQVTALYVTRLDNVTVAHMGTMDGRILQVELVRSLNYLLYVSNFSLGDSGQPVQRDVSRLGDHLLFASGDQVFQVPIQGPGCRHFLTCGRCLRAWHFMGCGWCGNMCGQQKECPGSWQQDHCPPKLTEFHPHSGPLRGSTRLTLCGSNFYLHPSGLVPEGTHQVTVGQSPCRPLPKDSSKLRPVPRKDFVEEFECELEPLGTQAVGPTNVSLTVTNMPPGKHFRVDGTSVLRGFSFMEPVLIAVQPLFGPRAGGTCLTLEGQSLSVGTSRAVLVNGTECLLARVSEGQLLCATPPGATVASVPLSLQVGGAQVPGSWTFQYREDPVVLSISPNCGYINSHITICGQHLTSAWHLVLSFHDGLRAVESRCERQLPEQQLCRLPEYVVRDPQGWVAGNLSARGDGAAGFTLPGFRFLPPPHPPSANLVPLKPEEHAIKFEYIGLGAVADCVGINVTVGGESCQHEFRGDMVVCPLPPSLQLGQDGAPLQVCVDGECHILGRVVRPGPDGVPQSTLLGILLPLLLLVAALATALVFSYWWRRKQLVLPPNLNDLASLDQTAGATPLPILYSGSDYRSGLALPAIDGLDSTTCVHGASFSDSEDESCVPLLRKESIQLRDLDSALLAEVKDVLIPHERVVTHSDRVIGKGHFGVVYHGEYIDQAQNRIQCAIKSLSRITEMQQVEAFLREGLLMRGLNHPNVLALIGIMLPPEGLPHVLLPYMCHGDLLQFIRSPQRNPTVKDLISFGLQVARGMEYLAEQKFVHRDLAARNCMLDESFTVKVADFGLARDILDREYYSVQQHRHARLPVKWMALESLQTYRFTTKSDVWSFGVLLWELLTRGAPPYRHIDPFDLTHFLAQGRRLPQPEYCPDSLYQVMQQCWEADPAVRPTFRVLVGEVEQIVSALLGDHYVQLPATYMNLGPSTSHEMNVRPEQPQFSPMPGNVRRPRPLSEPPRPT
UniProt Q9NYY3, sequence (whole entry, looked up): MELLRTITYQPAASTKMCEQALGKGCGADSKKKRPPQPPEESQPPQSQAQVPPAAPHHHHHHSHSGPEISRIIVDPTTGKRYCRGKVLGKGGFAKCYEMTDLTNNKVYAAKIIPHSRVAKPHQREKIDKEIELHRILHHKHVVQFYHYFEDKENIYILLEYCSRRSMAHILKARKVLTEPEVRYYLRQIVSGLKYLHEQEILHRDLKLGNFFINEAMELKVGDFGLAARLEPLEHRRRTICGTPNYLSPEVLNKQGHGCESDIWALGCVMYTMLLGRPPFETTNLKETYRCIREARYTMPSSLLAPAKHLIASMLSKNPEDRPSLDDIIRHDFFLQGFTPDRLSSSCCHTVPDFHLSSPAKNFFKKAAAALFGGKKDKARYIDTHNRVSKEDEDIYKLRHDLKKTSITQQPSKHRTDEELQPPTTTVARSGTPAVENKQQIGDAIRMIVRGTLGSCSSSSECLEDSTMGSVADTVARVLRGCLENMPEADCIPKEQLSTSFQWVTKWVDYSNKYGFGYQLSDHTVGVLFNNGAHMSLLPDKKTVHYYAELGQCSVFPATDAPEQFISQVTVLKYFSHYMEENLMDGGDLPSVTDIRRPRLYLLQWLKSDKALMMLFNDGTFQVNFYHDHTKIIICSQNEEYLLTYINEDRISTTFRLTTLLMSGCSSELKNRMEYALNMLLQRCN

Block 1
SMILES: CN([C@@H]1CCc2c(CC(=O)O)c3ccccc3n2C1)S(=O)(=O)c1ccc(F)cc1
Observed: cell-free assay
Method: competition with immobilised ligand
Tested at: 1 µM
| target | remaining binding |
| --- | --- |
| Dual specificity protein kinase TTK (TTK, Homo sapiens, UniProt P33981) | 100% |
| Mitogen-activated protein kinase kinase kinase 19 (MAP3K19, Homo sapiens, UniProt Q56UN5) | 100% |
| SRSF protein kinase 1 (SRPK1, Homo sapiens, UniProt Q96SB4) | 100% |
| Casein kinase I isoform delta (CSNK1D, Homo sapiens, UniProt P48730) | 100% |
| Epidermal growth factor receptor (EGFR, Homo sapiens, UniProt P00533, del747-750/T751S) | 100% |
| Ribosomal protein S6 kinase alpha-4, N-terminal kinase domain (RPS6KA4, Homo sapiens, UniProt O75676) | 100% |
| Serine/threonine-protein kinase PLK1 (PLK1, Homo sapiens, UniProt P53350) | 98% |
| Hepatocyte growth factor receptor (MET, Homo sapiens, UniProt P08581, Y1235D) | 100% |

Block 2
SMILES: CO[C@@H]1[C@H](N(C)C(=O)c2ccccc2)C[C@H]2O[C@]1(C)n1c3ccccc3c3c4c(c5c6ccccc6n2c5c31)C(=O)NC4
Observed: enzyme activity
Mode: inhibitor
Tested at: 1 µM
| target | inhibition [%] |
| --- | --- |
| Aurora kinase A (AURKA, Homo sapiens, UniProt O14965) | 98 |
| Serine/threonine-protein kinase RIO3 (RIOK3, Homo sapiens, UniProt O14730) | 100 |
| Macrophage-stimulating protein receptor (MST1R, Homo sapiens, UniProt Q04912) | 3 |
| Serine/threonine-protein kinase 32B (STK32B, Homo sapiens, UniProt Q9NY57) | 0 |
| Serine/threonine-protein kinase PLK2 (PLK2, Homo sapiens, UniProt Q9NYY3) | 21 |
| Activin receptor type-1B (ACVR1B, Homo sapiens, UniProt P36896) | 14 |
| Dual specificity protein kinase TTK (TTK, Homo sapiens, UniProt P33981) | 66 |
| Serine/threonine-protein kinase pim-3 (PIM3, Homo sapiens, UniProt Q86V86) | 45 |
| AP2-associated protein kinase 1 (AAK1, Homo sapiens, UniProt Q2M2I8) | 96 |

Block 3
Target: Calcium/calmodulin-dependent protein kinase type II subunit alpha (CAMK2A, Homo sapiens, UniProt Q9UQM7)
UniProt Q9UQM7, sequence (whole entry, looked up): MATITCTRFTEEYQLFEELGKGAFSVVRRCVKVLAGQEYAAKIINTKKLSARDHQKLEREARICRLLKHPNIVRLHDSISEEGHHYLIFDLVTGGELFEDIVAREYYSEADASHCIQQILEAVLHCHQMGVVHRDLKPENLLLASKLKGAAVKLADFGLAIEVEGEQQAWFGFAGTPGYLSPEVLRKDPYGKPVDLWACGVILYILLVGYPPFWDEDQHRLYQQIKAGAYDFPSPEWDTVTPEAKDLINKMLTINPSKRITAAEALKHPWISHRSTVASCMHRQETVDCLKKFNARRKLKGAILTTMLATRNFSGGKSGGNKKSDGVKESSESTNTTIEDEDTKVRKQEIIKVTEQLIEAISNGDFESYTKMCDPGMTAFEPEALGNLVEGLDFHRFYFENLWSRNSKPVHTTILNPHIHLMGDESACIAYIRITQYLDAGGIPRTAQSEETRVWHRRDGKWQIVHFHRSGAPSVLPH
Observed: enzyme activity
Mode: inhibitor
Tested at: 10 µM
| Structure (SMILES) | inhibition |
| --- | --- |
| O=Cc1ccc(O)cc1O | 32% |
| Cc1c(OCC(F)(F)F)ccnc1C[S@@+]([O-])c1nc2ccccc2[nH]1 | -1% |
| Oc1cccc2ccccc12 | -28% |
| C=CCC(=NOS(=O)(=O)O)S[C@@H]1O[C@H](CO)[C@@H](O)[C@H](O)[C@H]1O (stereo in doubt) | -41% |
| CCCCCCCCCCCCC/C=C/[C@@H](O)[C@@H](N)COP(=O)(O)O | 12% |
| O[C@H]1[C@H](O)[C@H](O)[C@@H](O)[C@H](O)[C@H]1O | 34% |
| CC(=O)O[C@]1(C(C)=O)CC[C@H]2[C@@H]3C=C(C)C4=CC(=O)CC[C@@H]4[C@H]3CC[C@@]21C | -2% |
| O=C(O)c1ccc2c(c1)OCO2 | -4% |
| COc1ccccc1OCCNCC(O)COc1cccc2[nH]c3ccccc3c12 (stereo not drawn) | -9% |
| O=c1oc2cc(O)ccc2c2oc3cc(O)ccc3c12 | -36% |
| O=C(Nc1nc2cccc(-c3ccc(CN4CCS(=O)(=O)CC4)cc3)n2n1)C1CC1 | 7% |
| CC(=O)O[C@@H]1C(=O)C2=C(C(=O)C[C@H]3C(C)(C)C(=O)CC[C@]23C)[C@]2(C)C(=O)C[C@H]([C@H](C)CC(=O)CC(C)C(=O)O)[C@@]12C (stereo partly drawn) | -6% |
| COc1ccc(-c2cc(=O)c3c(O)c(OC)c(OC)cc3o2)cc1O | 8% |

Block 4
Target: Tyrosine-protein kinase Fes/Fps (FES, Homo sapiens, UniProt P07332)
UniProt P07332, sequence (whole entry, looked up): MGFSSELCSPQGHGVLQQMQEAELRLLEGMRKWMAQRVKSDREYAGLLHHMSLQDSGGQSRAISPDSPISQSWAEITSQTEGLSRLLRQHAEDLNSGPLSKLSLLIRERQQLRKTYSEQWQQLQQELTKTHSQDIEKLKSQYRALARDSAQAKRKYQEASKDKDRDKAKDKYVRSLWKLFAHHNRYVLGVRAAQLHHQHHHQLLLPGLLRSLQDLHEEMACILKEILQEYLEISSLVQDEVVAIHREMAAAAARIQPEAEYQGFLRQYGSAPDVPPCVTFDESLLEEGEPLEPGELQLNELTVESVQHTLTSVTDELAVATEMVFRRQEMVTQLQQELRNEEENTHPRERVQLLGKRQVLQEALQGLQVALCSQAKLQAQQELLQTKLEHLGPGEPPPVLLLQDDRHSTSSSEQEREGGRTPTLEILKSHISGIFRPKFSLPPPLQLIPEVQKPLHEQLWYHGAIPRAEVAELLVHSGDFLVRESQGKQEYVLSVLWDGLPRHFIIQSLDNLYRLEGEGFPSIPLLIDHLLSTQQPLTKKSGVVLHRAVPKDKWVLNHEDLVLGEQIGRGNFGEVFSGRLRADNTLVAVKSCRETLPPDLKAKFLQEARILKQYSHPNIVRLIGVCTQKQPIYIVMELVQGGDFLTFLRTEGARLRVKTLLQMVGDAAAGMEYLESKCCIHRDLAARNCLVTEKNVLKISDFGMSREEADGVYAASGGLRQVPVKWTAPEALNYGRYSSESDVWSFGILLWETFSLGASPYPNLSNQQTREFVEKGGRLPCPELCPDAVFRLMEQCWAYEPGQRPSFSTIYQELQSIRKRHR
Observed: enzyme activity
Mode: inhibitor
Tested at: 0.5 µM
Relative to: control
| SMILES | remaining activity |
| --- | --- |
| O=C(O)c1ccc2c3c1cccc3c(=O)n1c3ccccc3nc21 | 98.2% |
| COc1ccc(OC)c2c(=S)c3ccccc3[nH]c12 | 102% |
| NCCNc1ncc(C(N)=O)c(Nc2cccc(C(F)(F)F)c2)n1 | 51.5% |
| Cc1cccc(-c2[nH]c(C(C)(C)C)nc2-c2ccc3c(c2)OCO3)n1 | 108% |
| CC(C)[C@H](CO)Nc1nc(Nc2cc(N)cc(Cl)c2)c2ncn(C(C)C)c2n1 | 69.2% |
| O=C(CCCc1ccc(-c2ccccc2F)cc1)Nc1ccc(O)cc1 | 100% |
| CO[C@H]1C[C@@H]2CC[C@@H](C)[C@@](O)(O2)C(=O)C(=O)N2CCCC[C@H]2C(=O)O[C@H]([C@H](C)C[C@@H]2CC[C@@H](O)[C@H](OC)C2)CC(=O)[C@H](C)/C=C(\C)[C@@H](O)[C@@H](OC)C(=O)[C@H](C)C[C@H](C)/C=C/C=C/C=C/1C | 108% |
| CN(C)c1ccc(C=C2C(=O)Nc3ccccc32)cc1 | 97.8% |
| CCOC(=O)c1c(C)[nH]c(/C=C2\C(=O)Nc3ccccc32)c1C | 99.3% |
| OCC(O)CCON=C1C(c2c(O)[nH]c3ccccc23)=Nc2ccccc21 (stereo not drawn) | 81.7% |
| Nc1ccc2ncnc(NCCc3ccc(Oc4ccccc4)cc3)c2c1 | 99.6% |
| COc1cc2ncnc(Nc3ccc(Oc4ccccc4)cc3)c2cc1OC | 99.6% |
| O=C1NC(=O)C(c2cn(CCCn3ccnc3)c3ccccc23)=C1Nc1ccccc1 | 103% |
| O=c1c2ccccc2[nH]c(=S)n1CCN1CCC(=C(c2ccc(F)cc2)c2ccc(F)cc2)CC1 | 94.9% |
| Cc1nc(-c2ccccc2)c(-c2ccncc2)o1 | 101% |

Excerpt of the above (block 2):
| target | inhibition [%] |
| --- | --- |
| Dual specificity protein kinase TTK (TTK, Homo sapiens, UniProt P33981) | 66 |
| Serine/threonine-protein kinase 32B (STK32B, Homo sapiens, UniProt Q9NY57) | 0 |
| AP2-associated protein kinase 1 (AAK1, Homo sapiens, UniProt Q2M2I8) | 96 |
| Macrophage-stimulating protein receptor (MST1R, Homo sapiens, UniProt Q04912) | 3 |
| Serine/threonine-protein kinase PLK2 (PLK2, Homo sapiens, UniProt Q9NYY3) | 21 |
| Activin receptor type-1B (ACVR1B, Homo sapiens, UniProt P36896) | 14 |
